Assay results from different studies.
Parts stem from different laboratories: compare values within a part only.
Chain of UniProt P07333 (whole entry, looked up): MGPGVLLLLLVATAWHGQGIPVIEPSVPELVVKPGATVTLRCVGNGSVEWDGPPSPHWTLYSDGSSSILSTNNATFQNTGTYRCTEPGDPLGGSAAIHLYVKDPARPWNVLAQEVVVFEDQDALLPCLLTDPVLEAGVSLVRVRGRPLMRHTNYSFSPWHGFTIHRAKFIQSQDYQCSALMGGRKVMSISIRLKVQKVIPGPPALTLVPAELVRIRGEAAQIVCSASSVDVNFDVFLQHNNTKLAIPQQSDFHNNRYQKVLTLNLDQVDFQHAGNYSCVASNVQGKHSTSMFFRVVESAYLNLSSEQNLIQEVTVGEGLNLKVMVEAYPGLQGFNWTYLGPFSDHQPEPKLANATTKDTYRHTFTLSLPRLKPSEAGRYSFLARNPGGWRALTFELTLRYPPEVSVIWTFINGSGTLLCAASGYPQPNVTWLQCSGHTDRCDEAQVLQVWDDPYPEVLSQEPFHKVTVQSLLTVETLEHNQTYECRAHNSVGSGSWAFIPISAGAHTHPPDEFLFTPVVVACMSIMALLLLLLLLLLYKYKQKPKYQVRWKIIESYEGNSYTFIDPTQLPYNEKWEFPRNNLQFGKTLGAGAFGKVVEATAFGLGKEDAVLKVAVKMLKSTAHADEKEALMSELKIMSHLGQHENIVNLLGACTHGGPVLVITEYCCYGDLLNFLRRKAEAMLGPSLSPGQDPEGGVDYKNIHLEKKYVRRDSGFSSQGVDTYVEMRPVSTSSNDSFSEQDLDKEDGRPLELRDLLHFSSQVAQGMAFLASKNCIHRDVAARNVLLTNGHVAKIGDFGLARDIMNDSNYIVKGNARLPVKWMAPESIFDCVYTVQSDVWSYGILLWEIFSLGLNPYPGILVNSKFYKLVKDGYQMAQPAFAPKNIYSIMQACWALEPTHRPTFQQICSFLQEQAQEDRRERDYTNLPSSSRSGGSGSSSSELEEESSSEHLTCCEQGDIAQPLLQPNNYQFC

Series 1
Target: Interferon regulatory factor 7, full length, phosphomimetic (IRF7, Homo sapiens, UniProt Q92985, residues 1-503, S471D/S472D/S475D/S476D/S477D/S483D/S484D/S487D)
Method: protein-binding microarray
Form: double-stranded DNA, one strand shown
Matrix: in vitro
Concentration: 2200 nM top
Notes: 60-bp whole probe
With: salmon DNA 0.4 mg/ml
Reference: random background probes
Direction: higher = stronger binding
Quantity: fitted relative affinity
Shared flanks, not repeated: GCCTAGCAC … GTCTTGATTCGCTTGACGCTGCTG
Construct (chain): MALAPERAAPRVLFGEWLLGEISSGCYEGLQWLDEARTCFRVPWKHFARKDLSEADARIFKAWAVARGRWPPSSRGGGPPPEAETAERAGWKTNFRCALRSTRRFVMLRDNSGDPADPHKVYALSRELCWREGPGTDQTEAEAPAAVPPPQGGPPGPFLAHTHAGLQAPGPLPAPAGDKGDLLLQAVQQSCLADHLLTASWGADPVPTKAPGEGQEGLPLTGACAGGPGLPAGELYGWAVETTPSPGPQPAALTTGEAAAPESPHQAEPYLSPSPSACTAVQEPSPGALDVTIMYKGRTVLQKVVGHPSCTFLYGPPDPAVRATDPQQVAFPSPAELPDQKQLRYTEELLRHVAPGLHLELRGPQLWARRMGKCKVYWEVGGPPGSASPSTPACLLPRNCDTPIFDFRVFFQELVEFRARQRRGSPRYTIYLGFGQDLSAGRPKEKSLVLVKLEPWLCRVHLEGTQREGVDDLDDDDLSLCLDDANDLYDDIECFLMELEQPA
GAAGATATCGGGACTGGAGACGTGCTA: -0.275 z-score
GACGGTATTGGTCTCGGGACGTGCTAG: 0.0225 z-score
TTAGATTTCAGTATCTATTAGTGCTAG: 0.797 z-score
TTAGGTTTCCTTCGCCTTTAGTGCTAG: 1.42 z-score
GACCGTATCCTTATCCTGACGTGCTAG: 1.61 z-score
GACGTTATCGGTCTCGGGACGTGCTAG: 0.529 z-score
GGTGTAAGGAACTGAAGTGAGTGCTAG: -0.772 z-score
ACTAATTTCCATTTTCTAAAGTGCTAG: 3.39 z-score

Series 2
Target: Sal-like protein 4, full length isoform B (SALL4, Homo sapiens, UniProt Q9UJQ4-2, residues 1-616)
Method: universal PBM
Form: double-stranded DNA, one strand shown
Matrix: in vitro
Concentration: not given
Notes: 8-mer, flanks averaged, mean of replicates
Direction: higher = stronger binding
Quantity: E-score
Target sequence (chain): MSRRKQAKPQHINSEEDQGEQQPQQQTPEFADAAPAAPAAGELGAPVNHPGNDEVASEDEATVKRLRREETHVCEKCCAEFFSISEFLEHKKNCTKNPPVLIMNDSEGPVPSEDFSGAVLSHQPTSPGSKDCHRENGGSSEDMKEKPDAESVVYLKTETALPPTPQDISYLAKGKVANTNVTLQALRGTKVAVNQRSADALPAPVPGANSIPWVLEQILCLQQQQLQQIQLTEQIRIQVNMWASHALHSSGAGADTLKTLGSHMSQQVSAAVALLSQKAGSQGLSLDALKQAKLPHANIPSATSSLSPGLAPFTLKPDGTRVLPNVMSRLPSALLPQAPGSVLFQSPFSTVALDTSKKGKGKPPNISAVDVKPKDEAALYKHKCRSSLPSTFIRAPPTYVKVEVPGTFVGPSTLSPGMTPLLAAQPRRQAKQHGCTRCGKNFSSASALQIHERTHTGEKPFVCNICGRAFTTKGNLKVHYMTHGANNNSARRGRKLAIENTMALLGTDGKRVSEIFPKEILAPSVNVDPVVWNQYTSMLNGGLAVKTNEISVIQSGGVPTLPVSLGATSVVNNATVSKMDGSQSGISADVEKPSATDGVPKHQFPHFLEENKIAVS
AAGCCGTC: -0.2
AGCGGAGG: -0.3
CGATAGCA: -0.106
GTTTTACA: 0.0551
GGGTTAAA: -0.0496
AATCCACG: 0.0266
GTTCACGA: -0.0922
CAGCATTA: 0.209

Series 3
Target: Protein C-ets-1 (ETS1, Homo sapiens, UniProt P14921, residues 1-441, full length assumed)
Method: protein-binding microarray
Form: double-stranded DNA, one strand shown
Matrix: in vitro
Concentration: not given
Notes: k-mer, scored over probes, only values ≥0.25
Direction: higher = stronger binding
Quantity: E-score
Target sequence (chain): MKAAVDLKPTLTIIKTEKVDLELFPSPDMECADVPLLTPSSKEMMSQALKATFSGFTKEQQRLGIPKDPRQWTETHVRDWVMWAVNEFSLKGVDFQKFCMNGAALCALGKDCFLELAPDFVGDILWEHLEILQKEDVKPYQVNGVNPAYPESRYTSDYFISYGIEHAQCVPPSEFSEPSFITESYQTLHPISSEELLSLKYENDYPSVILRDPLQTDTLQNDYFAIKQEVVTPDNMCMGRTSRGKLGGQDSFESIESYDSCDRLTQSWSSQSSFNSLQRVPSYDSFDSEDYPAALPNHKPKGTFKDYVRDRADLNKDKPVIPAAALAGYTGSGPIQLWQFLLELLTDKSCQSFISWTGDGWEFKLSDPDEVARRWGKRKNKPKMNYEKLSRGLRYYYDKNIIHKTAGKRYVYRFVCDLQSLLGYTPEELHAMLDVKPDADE
AGGAAACC: 0.419
AACCCGGA: 0.354
CGGAACCA: 0.344
CGGATACC: 0.417
AAATACCG: 0.287
ATCCTGCA: 0.28
AAGGCGGA: 0.297
ACCGGATG: 0.497

Mixed results
CNc1cc2c(Nc3cccc(Br)c3)ncnc2cn1
remaining activity (Macrophage colony-stimulating factor 1 receptor (CSF1R, Homo sapiens, UniProt P07333); enzyme activity, inhibitor; 0.5 µM; reference: control): 100%

Repeated from above (series 1):
TTAGGTTTCCTTCGCCTTTAGTGCTAG: 1.42 z-score
GACGGTATTGGTCTCGGGACGTGCTAG: 0.0225 z-score
ACTAATTTCCATTTTCTAAAGTGCTAG: 3.39 z-score
